# Measured values pooled from the literature.
# Numbered parts are unrelated; each lists some results of a single study.
# Chain of UniProt Q9Y616 (whole entry, looked up): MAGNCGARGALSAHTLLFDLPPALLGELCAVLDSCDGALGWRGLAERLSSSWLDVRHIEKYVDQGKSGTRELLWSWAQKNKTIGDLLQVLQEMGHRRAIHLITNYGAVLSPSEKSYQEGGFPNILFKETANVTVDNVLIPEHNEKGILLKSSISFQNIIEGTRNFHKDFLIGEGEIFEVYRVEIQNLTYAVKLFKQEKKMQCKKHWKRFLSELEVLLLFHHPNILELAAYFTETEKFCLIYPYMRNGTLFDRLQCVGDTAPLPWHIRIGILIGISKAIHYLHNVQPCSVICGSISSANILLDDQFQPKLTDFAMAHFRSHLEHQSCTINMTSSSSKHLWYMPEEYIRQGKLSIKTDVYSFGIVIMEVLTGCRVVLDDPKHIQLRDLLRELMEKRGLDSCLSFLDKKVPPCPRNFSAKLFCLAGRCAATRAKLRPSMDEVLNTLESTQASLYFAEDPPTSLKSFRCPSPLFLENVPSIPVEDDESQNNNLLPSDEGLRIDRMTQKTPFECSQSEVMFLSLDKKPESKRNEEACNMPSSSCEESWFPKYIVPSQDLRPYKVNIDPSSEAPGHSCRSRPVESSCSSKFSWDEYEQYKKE
# Chain of UniProt P08922 (whole entry, looked up): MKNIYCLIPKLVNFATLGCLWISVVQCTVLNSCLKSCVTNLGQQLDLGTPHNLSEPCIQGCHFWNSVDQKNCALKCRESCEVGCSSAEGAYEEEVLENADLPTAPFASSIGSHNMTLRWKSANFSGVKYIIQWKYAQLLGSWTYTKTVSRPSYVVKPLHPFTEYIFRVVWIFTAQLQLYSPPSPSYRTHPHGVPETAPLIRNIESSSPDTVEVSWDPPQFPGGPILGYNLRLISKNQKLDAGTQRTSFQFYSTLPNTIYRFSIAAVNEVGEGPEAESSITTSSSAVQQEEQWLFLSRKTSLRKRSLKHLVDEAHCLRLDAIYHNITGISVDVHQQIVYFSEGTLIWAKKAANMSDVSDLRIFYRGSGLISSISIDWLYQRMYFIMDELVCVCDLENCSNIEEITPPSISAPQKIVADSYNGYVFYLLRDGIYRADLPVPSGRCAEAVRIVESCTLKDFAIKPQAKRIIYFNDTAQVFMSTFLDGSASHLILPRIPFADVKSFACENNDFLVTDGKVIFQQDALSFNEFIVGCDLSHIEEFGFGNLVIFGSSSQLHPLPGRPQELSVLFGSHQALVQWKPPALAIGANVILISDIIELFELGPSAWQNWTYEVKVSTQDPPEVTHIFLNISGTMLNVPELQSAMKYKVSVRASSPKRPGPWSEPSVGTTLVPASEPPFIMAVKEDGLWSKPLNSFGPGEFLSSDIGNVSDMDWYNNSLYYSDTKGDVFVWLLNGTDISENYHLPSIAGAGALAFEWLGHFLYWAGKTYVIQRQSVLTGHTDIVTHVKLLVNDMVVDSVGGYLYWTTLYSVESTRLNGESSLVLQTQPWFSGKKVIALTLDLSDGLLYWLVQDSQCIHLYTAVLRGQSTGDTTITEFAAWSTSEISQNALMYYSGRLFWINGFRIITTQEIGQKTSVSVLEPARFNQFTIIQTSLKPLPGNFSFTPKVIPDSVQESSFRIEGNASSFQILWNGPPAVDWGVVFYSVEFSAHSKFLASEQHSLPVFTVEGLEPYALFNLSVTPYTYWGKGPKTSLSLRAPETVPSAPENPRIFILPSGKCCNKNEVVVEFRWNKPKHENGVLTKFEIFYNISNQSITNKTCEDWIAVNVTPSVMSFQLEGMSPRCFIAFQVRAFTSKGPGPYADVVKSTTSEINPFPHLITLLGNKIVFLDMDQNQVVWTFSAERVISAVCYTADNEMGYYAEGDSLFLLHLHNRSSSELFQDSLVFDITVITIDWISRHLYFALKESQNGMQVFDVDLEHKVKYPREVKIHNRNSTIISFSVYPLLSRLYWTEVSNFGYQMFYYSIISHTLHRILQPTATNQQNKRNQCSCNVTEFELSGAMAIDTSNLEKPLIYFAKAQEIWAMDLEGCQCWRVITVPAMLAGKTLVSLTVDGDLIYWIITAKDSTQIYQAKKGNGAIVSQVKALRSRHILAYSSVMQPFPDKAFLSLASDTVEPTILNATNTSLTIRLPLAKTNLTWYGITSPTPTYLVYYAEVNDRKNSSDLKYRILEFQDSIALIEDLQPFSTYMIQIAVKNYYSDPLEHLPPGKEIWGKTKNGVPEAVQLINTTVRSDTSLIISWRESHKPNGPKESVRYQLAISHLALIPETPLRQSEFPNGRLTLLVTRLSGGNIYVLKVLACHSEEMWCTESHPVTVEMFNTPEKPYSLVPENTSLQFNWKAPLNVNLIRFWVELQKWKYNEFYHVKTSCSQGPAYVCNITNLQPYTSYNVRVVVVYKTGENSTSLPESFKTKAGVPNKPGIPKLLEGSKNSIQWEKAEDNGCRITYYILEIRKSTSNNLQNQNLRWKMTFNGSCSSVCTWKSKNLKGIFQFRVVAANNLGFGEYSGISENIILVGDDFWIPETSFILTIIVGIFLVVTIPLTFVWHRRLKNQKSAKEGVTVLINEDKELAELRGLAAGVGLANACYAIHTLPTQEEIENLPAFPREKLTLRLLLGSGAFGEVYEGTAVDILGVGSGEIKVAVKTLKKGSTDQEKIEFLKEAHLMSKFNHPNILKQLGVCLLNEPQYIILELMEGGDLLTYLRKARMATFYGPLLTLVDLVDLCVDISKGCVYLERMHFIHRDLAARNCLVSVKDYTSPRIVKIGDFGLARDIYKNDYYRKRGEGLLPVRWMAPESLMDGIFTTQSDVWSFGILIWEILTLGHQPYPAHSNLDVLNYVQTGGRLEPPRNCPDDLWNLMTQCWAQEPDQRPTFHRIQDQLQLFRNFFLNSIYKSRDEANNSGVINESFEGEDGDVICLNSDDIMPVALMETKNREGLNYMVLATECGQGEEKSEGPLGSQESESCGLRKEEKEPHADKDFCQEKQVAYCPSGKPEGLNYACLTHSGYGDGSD
# Chain of UniProt P53355 (whole entry, looked up): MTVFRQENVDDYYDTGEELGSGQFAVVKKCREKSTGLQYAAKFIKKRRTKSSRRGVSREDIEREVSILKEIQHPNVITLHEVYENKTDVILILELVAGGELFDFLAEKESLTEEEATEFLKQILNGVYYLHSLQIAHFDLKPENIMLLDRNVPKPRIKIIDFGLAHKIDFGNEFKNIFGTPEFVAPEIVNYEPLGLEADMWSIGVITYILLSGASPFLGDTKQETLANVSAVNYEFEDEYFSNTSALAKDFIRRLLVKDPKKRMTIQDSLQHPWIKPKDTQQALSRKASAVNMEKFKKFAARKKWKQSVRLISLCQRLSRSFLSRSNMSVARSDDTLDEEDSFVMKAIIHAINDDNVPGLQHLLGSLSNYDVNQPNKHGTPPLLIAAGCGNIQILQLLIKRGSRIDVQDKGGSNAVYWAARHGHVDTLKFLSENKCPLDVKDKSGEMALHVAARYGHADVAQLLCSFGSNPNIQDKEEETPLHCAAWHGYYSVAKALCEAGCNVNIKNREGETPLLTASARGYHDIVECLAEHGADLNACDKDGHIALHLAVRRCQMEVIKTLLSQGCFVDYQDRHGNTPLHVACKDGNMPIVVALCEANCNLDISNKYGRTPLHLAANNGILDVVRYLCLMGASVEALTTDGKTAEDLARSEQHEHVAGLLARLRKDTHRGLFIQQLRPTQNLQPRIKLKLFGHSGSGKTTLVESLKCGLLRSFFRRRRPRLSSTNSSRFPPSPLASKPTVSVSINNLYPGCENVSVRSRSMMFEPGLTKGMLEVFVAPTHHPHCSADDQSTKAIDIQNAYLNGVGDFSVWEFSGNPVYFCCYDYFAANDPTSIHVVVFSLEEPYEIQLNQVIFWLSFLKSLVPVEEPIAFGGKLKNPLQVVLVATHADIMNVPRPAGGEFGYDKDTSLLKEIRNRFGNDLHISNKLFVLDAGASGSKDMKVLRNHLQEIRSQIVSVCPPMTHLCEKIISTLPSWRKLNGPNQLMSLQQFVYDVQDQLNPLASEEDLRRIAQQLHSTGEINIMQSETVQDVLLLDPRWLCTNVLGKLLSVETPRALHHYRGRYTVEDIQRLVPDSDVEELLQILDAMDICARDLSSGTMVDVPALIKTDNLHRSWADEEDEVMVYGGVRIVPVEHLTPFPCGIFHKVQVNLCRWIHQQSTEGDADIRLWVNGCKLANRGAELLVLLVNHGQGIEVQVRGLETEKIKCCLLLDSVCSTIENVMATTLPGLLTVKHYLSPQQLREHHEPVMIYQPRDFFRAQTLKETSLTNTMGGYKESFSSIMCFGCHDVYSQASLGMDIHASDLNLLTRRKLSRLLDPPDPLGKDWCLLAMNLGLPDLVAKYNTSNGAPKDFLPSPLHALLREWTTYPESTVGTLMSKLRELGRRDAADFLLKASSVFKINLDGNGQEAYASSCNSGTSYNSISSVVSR
# Chain of UniProt Q04759 (whole entry, looked up): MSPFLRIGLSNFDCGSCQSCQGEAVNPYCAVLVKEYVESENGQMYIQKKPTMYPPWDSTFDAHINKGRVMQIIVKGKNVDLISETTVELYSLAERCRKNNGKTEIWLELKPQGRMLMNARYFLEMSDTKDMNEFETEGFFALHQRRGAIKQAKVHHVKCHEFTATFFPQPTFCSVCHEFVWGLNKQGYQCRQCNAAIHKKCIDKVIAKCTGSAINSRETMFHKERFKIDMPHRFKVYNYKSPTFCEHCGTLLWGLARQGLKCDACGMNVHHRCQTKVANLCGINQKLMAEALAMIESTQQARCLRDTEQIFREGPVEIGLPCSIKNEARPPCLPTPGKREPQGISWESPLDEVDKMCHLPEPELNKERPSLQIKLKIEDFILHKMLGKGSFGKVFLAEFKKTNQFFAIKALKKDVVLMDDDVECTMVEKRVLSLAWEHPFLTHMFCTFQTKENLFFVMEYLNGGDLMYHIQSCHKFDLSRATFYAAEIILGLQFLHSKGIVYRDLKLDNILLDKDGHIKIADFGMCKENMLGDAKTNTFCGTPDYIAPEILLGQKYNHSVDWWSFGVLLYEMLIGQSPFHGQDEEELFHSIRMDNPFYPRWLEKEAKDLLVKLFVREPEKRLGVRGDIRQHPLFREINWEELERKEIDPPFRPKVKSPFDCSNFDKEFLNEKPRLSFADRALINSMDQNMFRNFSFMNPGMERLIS

# Block 1 — cell line: HaCaT; concentration: 100 µM; time: 36 h
Compound,viability
OCCN1CCN(CC/C=C2/c3ccccc3Sc3ccc(C(F)(F)F)cc32)CC1,6.36%
N[C@H](C(=O)O)[C@H](O)c1ccc(O)c(O)c1,100%
CO/N=C(\C(=O)N[C@@H]1C(=O)N2C(C(=O)OCOC(=O)C(C)(C)C)=C(/C=C\c3scnc3C)CS[C@H]12)c1csc(N)n1,96.8%
CCOC(=O)N[C@@H]1CC[C@@H]2[C@@H](C1)C[C@H]1C(=O)O[C@H](C)[C@H]1[C@H]2/C=C/c1ccc(-c2cccc(F)c2)cn1,115%
CC1=C(/C=C/C(C)=C/C=C/C(C)=C/C=C/C=C(C)/C=C/C=C(C)/C=C/C2=C(C)CCCC2(C)C)C(C)(C)CCC1,8.58%
NC1C(O)O[C@H](CO)C(O[C@@H]2O[C@H](CO)C(O[C@@H]3O[C@H](CO)[C@@H](O)[C@H](O)[C@H]3N)[C@H](O)C2N)C1O (stereo partly drawn),92.3%
Nc1nc2c(ncn2COCCO)c(=O)[nH]1,94.5%

# Block 2 — species: human; matrix: microsomes or S9; concentration: 2 µM; time: 0.5 h
Compound,remaining compound [%]
N#Cc1ccccc1N1CCN(C2CCC(C(=O)Nc3cccc(Cl)c3Cl)C2)CC1 (stereo not drawn),19.1
COc1cc(=O)[nH]cc1C(=O)N1CCC[C@H](CN2CCOCC2)C1,85.4
COc1ccc(-c2cc(C(=O)N3CCc4ccccc4C3)n[nH]2)cc1S(=O)(=O)N(C)C,10.3
Cc1cc(=O)n2c3ccccc3nc2n1CC(=O)c1ccco1,19.5
c1ccc2c(c1)cnn2CCCNc1ncnc2c1CCNCC2,94
CC(O)c1ccc(N2CCN(CCCNC(=O)c3cc4ccccc4s3)CC2)cc1 (stereo not drawn),> 99
COc1cc(=O)n(-c2ccccc2)cc1C(=O)NCC1CCCO1 (stereo not drawn),87.9
O=C(CNS(=O)(=O)c1cc(-c2noc(C3CCC3)n2)cs1)N1CCN(c2ccccc2)CC1,3.19
OCCNc1nc(Cl)nc(Nc2ccc3c(c2)OCO3)n1,21.5

# Block 3 — effect on: enzyme activity; mode: inhibitor; concentration: 1 µM
# Structure (SMILES): CC#CC(=O)N1CCC[C@H]1c1nc(-c2ccc(C(=O)Nc3ccccn3)cc2)c2c(N)nccn12
target,inhibition [%]
"CDKL5 (Homo sapiens, UniProt O76039)",5
"DAPK1 (Homo sapiens, UniProt P53355)",16
"PAK5 (Homo sapiens, UniProt Q9P286)",8
"MET (Homo sapiens, UniProt P08581, M1250T)",0
"ROS1 (Homo sapiens, UniProt P08922)",0
"EPHA8 (Homo sapiens, UniProt P29322)",2
"WNK3 (Homo sapiens, UniProt Q9BYP7)",23

# Block 4 — effect on: cell-free assay; method: competition with immobilised ligand; concentration: 1 µM
# SMILES: C[C@H](c1cccc(C#N)c1)n1cc(Cl)cc(C(N)=O)c1=N
target,remaining binding
"MAPK7 (Homo sapiens, UniProt Q13164)",88%
"MAP3K3 (Homo sapiens, UniProt Q99759)",91%
"RIPK4 (Homo sapiens, UniProt P57078)",71%
"MAPK12 (Homo sapiens, UniProt P53778)",100%
"PRKCQ (Homo sapiens, UniProt Q04759)",97%
"IKBKB (Homo sapiens, UniProt O14920)",100%
"Tyrosine-protein kinase ABL1, non-phosphorylated (ABL1, Homo sapiens, UniProt P00519)",100%
"CLK2 (Homo sapiens, UniProt P49760)",100%
"PIK3CA (Homo sapiens, UniProt P42336)",92%
"MAK (Homo sapiens, UniProt P20794)",100%
"LATS1 (Homo sapiens, UniProt O95835)",74%
"IRAK3 (Homo sapiens, UniProt Q9Y616)",99%
"CSNK1A1L (Homo sapiens, UniProt Q8N752)",92%
"CSF1R (Homo sapiens, UniProt P07333)",100%
"HIPK3 (Homo sapiens, UniProt Q9H422)",81%
"CDK15 (Homo sapiens, UniProt Q96Q40)",84%

# Excerpt of the above (block 4):
target,remaining binding
"PRKCQ (Homo sapiens, UniProt Q04759)",97%
"MAK (Homo sapiens, UniProt P20794)",100%
"MAPK12 (Homo sapiens, UniProt P53778)",100%
"CLK2 (Homo sapiens, UniProt P49760)",100%
"MAP3K3 (Homo sapiens, UniProt Q99759)",91%
"PIK3CA (Homo sapiens, UniProt P42336)",92%
